Results of several laboratories.
Lines come from different studies, so protocols differ. In brackets after ≈: the same amount, converted by molar mass.

Structure (SMILES)	organism	assay	test system	conditions	endpoint	value
CC(=O)NC[C@H]1CN(c2ccc(N3CCOCC3)c(F)c2)C(=O)O1	Streptococcus pyogenes	–	–	–	MIC90	1 µg/mL (≈ 2.96 µM)
COc1ccc2cc1Oc1cc(ccc1OC)CCC(N[C@@H]1CCCc3ccccc31)CCCC2 (some centres unmarked)	Streptococcus pyogenes	broth microdilution	ATCC 700294	–	MIC	> 100 µg/mL
CN[C@H](CC(C)C)C(=O)N[C@H]1C(=O)N[C@@H](CC(N)=O)C(=O)N[C@H]2C(=O)N[C@H]3C(=O)N[C@H](C(=O)N[C@H](C(=O)O)c4cc(O)cc(O)c4-c4cc3ccc4O)[C@H](O)c3ccc(c(Cl)c3)Oc3cc2cc(c3O[C@@H]2O[C@H](CO)[C@@H](O)[C@H](O)[C@H]2O[C@H]2C[C@](C)(N)[C@H](O)[C@H](C)O2)Oc2ccc(cc2Cl)[C@H]1O	Streptococcus pyogenes	–	–	–	MIC	0.25 µg/mL
CCN1CCN(Cc2ccc(-c3cc4c(N[C@H](C)c5ccccc5)ncnc4[nH]3)cc2)CC1	human coronavirus OC43	virus-induced cell killing	MRC-5	screen	maximum inhibition	11.1%
C[C@H]1COc2c(N3CCN(C)CC3)c(F)cc3c(=O)c(C(=O)O)cn1c23	Streptococcus pyogenes	–	–	–	MIC90	1 µg/mL (≈ 2.77 µM)
CC(C)C[C@@H](NC(=O)[C@H](C)NC(=O)CNC(=O)[C@@H](NC=O)C(C)C)C(=O)N[C@@H](C)C(=O)N[C@@H](C(=O)N[C@H](C(=O)N[C@@H](C(=O)N[C@@H](Cc1c[nH]c2ccccc12)C(=O)N[C@H](CC(C)C)C(=O)N[C@@H](Cc1ccc2cc[nH]c2c1)C(=O)N[C@H](CC(C)C)C(=O)N[C@@H](Cc1c[nH]c2ccccc12)C(=O)N[C@H](CC(C)C)C(=O)N[C@@H](Cc1c[nH]c2ccccc12)C(=O)NCCO)C(C)C)C(C)C)C(C)C	Streptococcus pyogenes	broth microdilution	SSI-9	–	MIC	8.3 nM
O=C(NCCCNc1nc(Nc2cccc(NC(=O)N3CCCC3)c2)ncc1I)c1cccs1	human coronavirus OC43	virus-induced cell killing	MRC-5	maximum over 10 doses	maximum inhibition	0%
CC(C)C[C@@H](NC(=O)[C@H](C)NC(=O)CNC(=O)[C@@H](NC=O)C(C)C)C(=O)N[C@@H](C)C(=O)N[C@@H](C(=O)N[C@H](C(=O)N[C@@H](C(=O)N[C@@H](Cc1c[nH]c2ccccc12)C(=O)N[C@H](CC(C)C)C(=O)N[C@@H](Cc1cc2ccccc2[nH]1)C(=O)N[C@H](CC(C)C)C(=O)N[C@@H](Cc1c[nH]c2ccccc12)C(=O)N[C@H](CC(C)C)C(=O)N[C@@H](Cc1c[nH]c2ccccc12)C(=O)NCCO)C(C)C)C(C)C)C(C)C	Streptococcus pyogenes	broth microdilution	SSI-9	–	MIC	66 nM
Cn1c(=O)ccc2ccc(F)c(CCNC[C@H]3CN(c4cnc5c(n4)NC(=O)CO5)C(=O)O3)c21	Streptococcus pyogenes	–	–	–	MIC50	0.03 µg/mL (≈ 0.064 µM)
CC[C@H](C)[C@H](NC(=O)[C@H](C)NC(=O)[C@H](CCCCN)NC(=O)[C@H](CC(C)C)NC(=O)[C@H](C)NC(=O)[C@@H](NC(=O)[C@H](Cc1c[nH]cn1)NC(=O)[C@H](CC(C)C)NC(=O)[C@@H](NC(=O)[C@@H](NC(=O)[C@H](CCCCN)NC(=O)[C@H](C)NC(=O)[C@H](C)NC(=O)[C@H](CO)NC(=O)[C@H](CCCCN)NC(=O)[C@H](Cc1ccccc1)NC(=O)[C@@H](NC(=O)[C@H](CCCCN)NC(=O)[C@H](CC(C)C)NC(=O)[C@H](Cc1ccccc1)NC(=O)[C@H](CO)NC(=O)[C@H](CCCCN)NC(=O)[C@H](Cc1c[nH]c2ccccc12)NC(=O)[C@H](CCCCN)NC(C)=O)[C@@H](C)O)[C@@H](C)O)C(C)C)[C@@H](C)O)C(=O)N[C@@H](CO)C(=O)N[C@@H](CO)C(N)=O	Streptococcus pyogenes	–	ATCC 13813	1 strain	MBC50	16 µg/mL (≈ 5.45 µM)
CC(C)C[C@@H](NC(=O)[C@H](C)NC(=O)CNC(=O)[C@@H](NC=O)C(C)C)C(=O)N[C@@H](C)C(=O)N[C@@H](C(=O)N[C@H](C(=O)N[C@@H](C(=O)N[C@@H](Cc1c[nH]c2ccccc12)C(=O)N[C@H](CC(C)C)C(=O)N[C@@H](Cc1ccc2[nH]ccc2c1)C(=O)N[C@H](CC(C)C)C(=O)N[C@@H](Cc1c[nH]c2ccccc12)C(=O)N[C@H](CC(C)C)C(=O)N[C@@H](Cc1c[nH]c2ccccc12)C(=O)NCCO)C(C)C)C(C)C)C(C)C	Streptococcus pyogenes	broth microdilution	SSI-9	–	MIC	8.3 nM

A few entries again:
Structure (SMILES)	organism	assay	test system	conditions	endpoint	value
C[C@H]1COc2c(N3CCN(C)CC3)c(F)cc3c(=O)c(C(=O)O)cn1c23	Streptococcus pyogenes	–	–	–	MIC90	1 µg/mL (≈ 2.77 µM)
CC(C)C[C@@H](NC(=O)[C@H](C)NC(=O)CNC(=O)[C@@H](NC=O)C(C)C)C(=O)N[C@@H](C)C(=O)N[C@@H](C(=O)N[C@H](C(=O)N[C@@H](C(=O)N[C@@H](Cc1c[nH]c2ccccc12)C(=O)N[C@H](CC(C)C)C(=O)N[C@@H](Cc1ccc2cc[nH]c2c1)C(=O)N[C@H](CC(C)C)C(=O)N[C@@H](Cc1c[nH]c2ccccc12)C(=O)N[C@H](CC(C)C)C(=O)N[C@@H](Cc1c[nH]c2ccccc12)C(=O)NCCO)C(C)C)C(C)C)C(C)C	Streptococcus pyogenes	broth microdilution	SSI-9	–	MIC	8.3 nM
